Published values gathered from unrelated publications.
“And” joins repeats or separate records; there may be more than shown. ± marks the error that the study gave.
ROPGAP3: ROPGAP3 (Arabidopsis thaliana, UniProt Q8GYY5)
UniProt Q8GYY5, sequence (whole entry, looked up): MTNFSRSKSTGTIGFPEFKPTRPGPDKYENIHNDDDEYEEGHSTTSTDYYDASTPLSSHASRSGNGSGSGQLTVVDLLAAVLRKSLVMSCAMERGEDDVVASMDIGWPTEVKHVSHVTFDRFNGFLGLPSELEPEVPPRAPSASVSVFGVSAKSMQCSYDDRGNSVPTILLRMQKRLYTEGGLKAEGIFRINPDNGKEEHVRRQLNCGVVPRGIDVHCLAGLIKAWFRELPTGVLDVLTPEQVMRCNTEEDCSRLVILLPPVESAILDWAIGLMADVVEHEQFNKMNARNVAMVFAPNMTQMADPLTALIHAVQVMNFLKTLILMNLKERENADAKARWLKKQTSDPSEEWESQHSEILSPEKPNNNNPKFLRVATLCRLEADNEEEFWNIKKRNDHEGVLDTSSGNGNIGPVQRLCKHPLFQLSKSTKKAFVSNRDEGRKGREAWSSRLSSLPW
B1: gpM 1-109 (bacteriophage lambda, UniProt P03737); chain MKTFRWKVKPGMDVASVPSVRKVRFGDGYSQRAPAGLNANLKTYSVTLSVPREEATVLESFLEEHGGWKSFLWTPPYEWRQIKVTCAKWSSRVSMLRVEFSAEFEQVVN
B2: rplP uL16 (Mycobacterium smegmatis, UniProt A0QSD8); chain MLIPRKVKHRKQHHPEQRGIASGGTSVSFGDYGIQALEHAYITNRQIESARIAINRHIKRGGKVWINIFPDRPLTKKPAETRMGSGKGSPEWWVANVKPGRVLFELSYPDEKTARDALTRAIHKLPIKARIVTREEQF
B3: MSMEG_2064 (Mycolicibacterium smegmatis, UniProt A0QU37); chain MAGSAPLRILVYSDNPRTREQVRLALGKRIHPELPEIEYVDVATAPMAISQMDAGGFDLAILDGEATPAGGMGVAKQVKDEIDDCPPILVLTGRADDAWLAKWSRAEAAVPHPIDPIRLSDAVVSLLRAPAQ
B4: EPS15 648-780 (Homo sapiens, UniProt P42566); chain KGSDPFASDCFFRQSTDPFATSSTDPFSAANNSSITSVETLKHNDPFAPGGTVVAASDSATDPFASVFGNESFGGGFADFSTLSKVNNEDPFRSATSSSVSNVVITKNVFEETSVKSEDEPPALPPKIGTPTR
B5: VPS29 (Arabidopsis thaliana, UniProt Q9STT2); chain MVLVLALGDLHVPHRAADLPPKFKSMLVPGKIQHIICTGNLCIKEIHDYLKTICPDLHIVRGEFDEDARYPENKTLTIGQFKLGLCHGHQVIPWGDLDSLAMLQRQLGVDILVTGHTHQFTAYKHEGGVVINPGSATGAYSSINQDVNPSFVLMDIDGFRAVVYVYELIDGEVKVDKIEFKKPPTTSSGP
B6: BAG4 376-457 (UniProt O95429); pT405; chain TPPSIKKIIHVLEKVQYLEQEVEEFVGKKTDKAYWLLEEMLTKELLELDSVETGGQDSVRQARKEAVCKIQAILEKLEKKGL
B7: Cbx1 (Mus musculus, UniProt P83917); chain MGKKQNKKKVEEVLEEEEEEYVVEKVLDRRVVKGKVEYLLKWKGFSDEDNTWEPEENLDCPDLIAEFLQSQKTAHETDKSEGGKRKADSDSEDKGEESKPKKKKEESEKPRGFARGLEPERIIGATDSSGELMFLMKWKNSDEADLVPAKEANVKCPQVVISFYEERLTWHSYPSEDDDKKDDKN
B8: mutL 460-658 K568A (Neisseria gonorrhoeae, UniProt Q5F8M6); chain SQSELPPLGFAIAQLLGIYILAQAEDSLLLIDMHAAAERVNYEKMKRQRQENGNLQSQHLLIPVTFAASHEECAALADHAETLAGFGLELSDMGGNTLAVRAAPVMLGASDVVSLARDVLGELAQVGSSQTIASHENRILATMSCHGSIRAGRRLTLPEMNALLRDMENTPRSNQCNHGRPTWVKLTLKELDTLFLRGQ
B9: PIN1 167-460 (Arabidopsis thaliana, UniProt Q9C6B8); chain DTAGSIVSIHVDSDIMSLDGRQPLETEAEIKEDGKLHVTVRRSNASRSDIYSRRSQGLSATPRPSNLTNAEIYSLQSSRNPTPRGSSFNHTDFYSMMASGGGRNSNFGPGEAVFGSKGPTPRPSNYEEDGGPAKPTAAGTAAGAGRFHYQSGGSGGGGGAHYPAPNPGMFSPNTGGGGGTAAKGNAPVVGGKRQDGNGRDLHMFVWSSSASPVSDVFGGGGGNHHADYSTATNDHQKDVKISVPQGNSNDNQYVEREEFSFGNKDDDSKVLATDGGNNISNKTTQAKVMPPTSV
B10: PIN3 167-286 (Arabidopsis thaliana, UniProt Q9S7Z8); chain ETAASIVSFKVESDVVSLDGHDFLETDAEIGDDGKLHVTVRKSNASRRSFCGPNMTPRPSNLTGAEIYSLSTTPRGSNFNHSDFYNMMGFPGGRLSNFGPADMYSVQSSRGPTPRPSNFE
B11: PRP40 1-75 (Saccharomyces cerevisiae, UniProt P33203); chain MSIWKEAKDASGRIYYYNTLTKKSTWEKPKELISQEELLLRENGWKAAKTADGKVYYYNPTTRETSWTIPAFEKK
B12: CENPW K29A/K30A/R34A/E36A/T60E (Homo sapiens, UniProt Q5EE01); sequence looked up; chain MALSTIVSQRKQIKRKAPRGFLKRVFKRAAPQLALAKSGDLLVHLNCLLFVHRLAEESRENACASKCRVINKEHVLAAAKVILKKSRG
B13: GST-KRP3 (Oryza sativa, UniProt Q2R185); chain MGKYLRSSCKQQQQPSSPAAVASVAAAAVSSYSYLTLRSGRRVPAAAAAAGGSACRRRHRRGGRRGCAKNGAGSARACGARSPTSSASSGQRRRCEAVECSHGGGRAELSRSPPLGNSVVVVSGDVVSGERKSLKPNSCSREVAAEHAGEHKHNPAAAAAAGRRPPLSPPEAEIEAFFAAAELAERRRFAEKYNYDIALDRPLQGRYEWEPTVPNFDVAKDVTDM
B14: atpC 1-133 (Acinetobacter baumannii, UniProt A3M145); sequence looked up; chain MATMQCDVVSVKESIYSGAVTMLIAKGAGGELGILPGHAPLVTLLQPGPIRVLLENGTEEIVYVSGGVLEVQPHVVTVLADTAIRADNLDEAAILEARKNAEQLLANQKSDLDSAAALAALAETAAQLETIRK
B15: NuoB (Mycolicibacterium smegmatis, UniProt A0QU35); chain MGLEERLPGGILLSTVETVAGYVRKGSLWPATFGLACCAIEMMSTAGPRFDIARFGMERFSATPRQADLMIVAGRVSQKMAPVLRQIYDQMVEPKWVLAMGVCASSGGMFNNYAVVQGVDHVVPVDIYLPGCPPRPEMLLHAILKLHDKIQQMPLGVNREEAIREAEQAALAVPPTIELKGLLR
B16: cfap-20 (Caenorhabditis elegans, UniProt Q86D25); sequence looked up; chain MFHNTFQSGLLSVLYSIGSKPLQIWDTQIKNGHVKRITDEEIQSLVLEIMGNNISTAFISCPVDPDKTLGIKLPFFVMVVKNMNKYFSFEVQIIDDKKIKRRFRASNYQSATRVKPFICTMPMRMDEGWNQIQFNLSDFVKRAYGTNYVETLRIQIHANCRIRRVYFADRLYTEDELPAEFKLYLPIRGQLSTQSPAFAMTSE
UniProt A0QU33, sequence (whole entry, looked up): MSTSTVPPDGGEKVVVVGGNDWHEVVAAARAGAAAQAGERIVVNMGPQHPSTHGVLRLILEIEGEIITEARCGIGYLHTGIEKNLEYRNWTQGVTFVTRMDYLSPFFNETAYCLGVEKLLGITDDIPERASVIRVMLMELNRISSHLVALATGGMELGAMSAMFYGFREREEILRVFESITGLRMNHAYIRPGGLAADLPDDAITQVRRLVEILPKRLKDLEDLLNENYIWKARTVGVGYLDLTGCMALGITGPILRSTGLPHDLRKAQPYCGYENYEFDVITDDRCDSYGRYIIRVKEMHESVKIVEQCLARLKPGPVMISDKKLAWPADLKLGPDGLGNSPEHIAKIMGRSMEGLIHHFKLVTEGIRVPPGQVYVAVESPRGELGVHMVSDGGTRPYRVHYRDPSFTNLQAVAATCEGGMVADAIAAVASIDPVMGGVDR
UniProt P49951, sequence (whole entry, looked up): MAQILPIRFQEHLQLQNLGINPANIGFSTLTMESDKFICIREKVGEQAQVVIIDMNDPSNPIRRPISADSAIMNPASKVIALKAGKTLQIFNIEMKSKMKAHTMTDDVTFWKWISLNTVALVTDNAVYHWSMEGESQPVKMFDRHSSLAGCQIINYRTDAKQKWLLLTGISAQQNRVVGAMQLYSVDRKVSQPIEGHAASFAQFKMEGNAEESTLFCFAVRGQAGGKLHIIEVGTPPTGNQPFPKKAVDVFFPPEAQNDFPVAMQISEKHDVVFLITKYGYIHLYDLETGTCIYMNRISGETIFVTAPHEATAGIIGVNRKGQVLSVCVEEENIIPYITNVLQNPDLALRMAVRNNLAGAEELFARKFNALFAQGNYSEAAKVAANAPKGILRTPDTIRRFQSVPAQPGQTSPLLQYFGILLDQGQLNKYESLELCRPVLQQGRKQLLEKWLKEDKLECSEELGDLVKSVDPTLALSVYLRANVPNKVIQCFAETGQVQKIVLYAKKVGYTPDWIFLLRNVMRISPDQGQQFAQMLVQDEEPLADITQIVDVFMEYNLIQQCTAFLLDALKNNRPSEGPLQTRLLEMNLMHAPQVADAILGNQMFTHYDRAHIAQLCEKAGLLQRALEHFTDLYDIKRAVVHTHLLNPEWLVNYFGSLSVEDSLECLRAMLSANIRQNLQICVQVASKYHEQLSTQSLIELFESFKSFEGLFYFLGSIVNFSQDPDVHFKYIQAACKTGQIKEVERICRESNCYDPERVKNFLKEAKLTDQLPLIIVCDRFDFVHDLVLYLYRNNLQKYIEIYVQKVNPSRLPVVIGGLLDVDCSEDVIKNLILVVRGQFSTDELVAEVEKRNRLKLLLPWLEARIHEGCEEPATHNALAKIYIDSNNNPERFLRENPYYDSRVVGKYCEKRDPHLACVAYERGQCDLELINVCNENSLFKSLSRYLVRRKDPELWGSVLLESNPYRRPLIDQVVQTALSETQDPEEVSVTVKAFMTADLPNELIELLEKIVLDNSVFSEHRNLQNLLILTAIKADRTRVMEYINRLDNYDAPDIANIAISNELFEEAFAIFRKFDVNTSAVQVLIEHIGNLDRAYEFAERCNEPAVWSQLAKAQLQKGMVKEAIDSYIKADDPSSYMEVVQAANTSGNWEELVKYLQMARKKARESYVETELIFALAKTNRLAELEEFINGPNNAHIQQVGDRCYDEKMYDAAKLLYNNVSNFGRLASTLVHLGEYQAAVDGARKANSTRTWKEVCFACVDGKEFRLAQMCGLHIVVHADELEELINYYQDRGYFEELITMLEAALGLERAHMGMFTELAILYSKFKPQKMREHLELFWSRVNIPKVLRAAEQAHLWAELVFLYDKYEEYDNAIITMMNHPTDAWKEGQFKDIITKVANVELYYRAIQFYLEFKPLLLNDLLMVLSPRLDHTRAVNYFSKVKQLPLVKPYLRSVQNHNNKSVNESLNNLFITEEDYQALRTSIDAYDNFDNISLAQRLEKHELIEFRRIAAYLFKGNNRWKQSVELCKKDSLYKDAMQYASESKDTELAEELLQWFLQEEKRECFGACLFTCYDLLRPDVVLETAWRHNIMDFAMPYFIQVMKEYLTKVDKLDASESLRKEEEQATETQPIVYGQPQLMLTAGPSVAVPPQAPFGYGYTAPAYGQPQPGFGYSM
UniProt P19438, sequence (whole entry, looked up): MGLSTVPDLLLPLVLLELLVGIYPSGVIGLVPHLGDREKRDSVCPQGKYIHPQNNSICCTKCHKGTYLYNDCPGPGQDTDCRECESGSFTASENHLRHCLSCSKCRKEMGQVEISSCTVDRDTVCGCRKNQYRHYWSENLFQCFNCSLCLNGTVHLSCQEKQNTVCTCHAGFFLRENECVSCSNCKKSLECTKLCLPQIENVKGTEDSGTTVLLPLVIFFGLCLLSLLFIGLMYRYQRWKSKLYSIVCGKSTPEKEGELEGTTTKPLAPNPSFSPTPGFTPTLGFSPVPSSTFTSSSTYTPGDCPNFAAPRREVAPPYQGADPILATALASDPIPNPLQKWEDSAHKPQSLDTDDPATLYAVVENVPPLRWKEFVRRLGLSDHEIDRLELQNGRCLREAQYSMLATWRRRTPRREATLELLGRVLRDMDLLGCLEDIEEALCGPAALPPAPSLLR
UniProt A0QU28, sequence (whole entry, looked up): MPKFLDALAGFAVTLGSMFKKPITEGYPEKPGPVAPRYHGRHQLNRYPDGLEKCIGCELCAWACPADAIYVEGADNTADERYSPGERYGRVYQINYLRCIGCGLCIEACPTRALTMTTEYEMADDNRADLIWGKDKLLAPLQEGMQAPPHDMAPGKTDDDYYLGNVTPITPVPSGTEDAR
UniProt P35222, sequence (whole entry, looked up): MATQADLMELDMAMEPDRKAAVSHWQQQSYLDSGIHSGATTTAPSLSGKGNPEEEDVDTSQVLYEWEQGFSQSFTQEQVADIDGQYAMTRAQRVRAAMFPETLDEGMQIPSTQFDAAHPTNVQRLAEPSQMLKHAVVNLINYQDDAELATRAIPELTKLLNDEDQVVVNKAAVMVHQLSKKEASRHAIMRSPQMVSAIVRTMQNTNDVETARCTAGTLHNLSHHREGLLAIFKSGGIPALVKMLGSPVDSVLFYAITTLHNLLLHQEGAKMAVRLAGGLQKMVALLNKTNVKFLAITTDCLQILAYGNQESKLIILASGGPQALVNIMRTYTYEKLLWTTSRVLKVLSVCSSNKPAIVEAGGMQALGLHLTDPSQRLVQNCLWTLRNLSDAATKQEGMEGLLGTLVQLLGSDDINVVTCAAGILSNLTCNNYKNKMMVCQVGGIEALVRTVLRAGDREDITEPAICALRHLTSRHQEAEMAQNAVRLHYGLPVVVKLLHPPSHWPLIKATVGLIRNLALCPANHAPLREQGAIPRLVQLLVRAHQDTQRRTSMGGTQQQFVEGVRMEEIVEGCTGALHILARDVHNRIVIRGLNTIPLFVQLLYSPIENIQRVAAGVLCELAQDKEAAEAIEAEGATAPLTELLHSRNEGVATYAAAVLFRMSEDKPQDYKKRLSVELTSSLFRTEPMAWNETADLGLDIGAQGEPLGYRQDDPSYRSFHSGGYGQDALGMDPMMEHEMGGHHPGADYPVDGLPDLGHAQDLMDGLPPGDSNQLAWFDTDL
UniProt O44770, sequence (whole entry, looked up): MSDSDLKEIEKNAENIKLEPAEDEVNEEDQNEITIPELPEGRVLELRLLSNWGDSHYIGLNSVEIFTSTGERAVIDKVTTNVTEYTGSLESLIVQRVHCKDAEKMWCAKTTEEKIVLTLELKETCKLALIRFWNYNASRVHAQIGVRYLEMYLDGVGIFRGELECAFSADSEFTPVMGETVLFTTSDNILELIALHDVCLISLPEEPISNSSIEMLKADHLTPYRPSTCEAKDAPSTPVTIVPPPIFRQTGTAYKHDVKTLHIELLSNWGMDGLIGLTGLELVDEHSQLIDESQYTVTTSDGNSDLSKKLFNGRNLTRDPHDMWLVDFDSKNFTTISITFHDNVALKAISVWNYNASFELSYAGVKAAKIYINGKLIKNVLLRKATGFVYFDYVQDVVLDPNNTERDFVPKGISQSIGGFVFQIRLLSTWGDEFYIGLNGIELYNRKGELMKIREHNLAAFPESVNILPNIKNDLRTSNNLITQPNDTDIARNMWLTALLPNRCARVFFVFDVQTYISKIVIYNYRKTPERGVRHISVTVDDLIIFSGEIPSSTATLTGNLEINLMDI
UniProt Q12186, sequence (whole entry, looked up): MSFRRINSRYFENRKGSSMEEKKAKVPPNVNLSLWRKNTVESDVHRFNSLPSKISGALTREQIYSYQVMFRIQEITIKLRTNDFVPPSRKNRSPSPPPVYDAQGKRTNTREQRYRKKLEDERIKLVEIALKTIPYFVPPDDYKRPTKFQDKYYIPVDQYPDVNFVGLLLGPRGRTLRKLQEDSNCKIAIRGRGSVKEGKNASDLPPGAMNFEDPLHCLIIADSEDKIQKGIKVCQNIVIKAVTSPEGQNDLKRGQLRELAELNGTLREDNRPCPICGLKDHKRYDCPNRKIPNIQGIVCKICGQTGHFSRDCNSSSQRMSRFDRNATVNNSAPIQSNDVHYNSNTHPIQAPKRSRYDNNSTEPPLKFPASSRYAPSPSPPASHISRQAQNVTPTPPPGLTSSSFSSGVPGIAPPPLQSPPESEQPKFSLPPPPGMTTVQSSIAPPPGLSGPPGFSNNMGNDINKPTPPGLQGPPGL

B1 (gpM 1-109)  binding (gpV tail tube protein (bacteriophage lambda, UniProt P03733); cryo-EM): binds
YQGSQCGSLSMLLGKSKPFCTFVEG (PF3D7_0900200 peptide 243-267 (Plasmodium falciparum, UniProt Q8I3E4); sequence looked up)  binding (LILRB1 24-461 (Homo sapiens, UniProt Q8NHL6); SPR; peptide): binds
B2 (rplP uL16)  binding (hflX (Mycobacterium smegmatis, UniProt A0QVY1); cryo-EM): binds
HBV core protein C-terminal NLS peptide (hepatitis B virus) (sequence not shown)  binding (Kpna2 fragment (Mus musculus); crystal structure): binds
B3 (MSMEG_2064)  binding (nuoI (Mycolicibacterium smegmatis, UniProt A0QU28); cryo-EM): binds
MPQLNGGGGDDLGANDELISFKDEGEQEEKSSENSSAERDLADVKSSLVNESE (TCF7L2 1-53 (Homo sapiens, UniProt Q9NQB0))  binding (CTNNB1 (Homo sapiens, UniProt P35222); BLI): binds
HVLVMSATRR  total cholesterol (peptide, C57BL/6J mice, male, serum; subcutaneous osmotic pump, 3 mg/kg/day peptide basis, 8 weeks): 101 mg/dL and 100 mg/dL
B4 (EPS15 648-780)  binding (CLTC 1-363 (Bos taurus, UniProt P49951); NMR titration): binds
B5 (VPS29)  binding (BLI (Arabidopsis thaliana, UniProt Q9LIQ9); pull-down): binds
HAG2 (Arabidopsis thaliana, UniProt Q9FJT8)  binding (Histone H4 (Homo sapiens, UniProt P62805); pull-down): binds
B6 (BAG4 376-457)  binding (TNFRSF1A 356-441 (Homo sapiens, UniProt P19438); fluorescence polarisation): binds
B7 (Cbx1)  binding (swi6 (Schizosaccharomyces pombe, UniProt P40381); cross-linking): binds
nonaarginine  Kd (PorA peptide pore; peptide binding, planar bilayer single-channel recording; pH 7.4, +35 mV, trans side, 150 mM KCl): 7.03 ± 0.7 µM
aspterric acid  inhibition (Arabidopsis thaliana; hypocotyl length; Col-0, seedlings; 50 µg/mL, half-strength MS): 99.4%
B8 (mutL 460-658 K568A)  binding (dnaN beta clamp 1-367 (Neisseria gonorrhoeae, UniProt A0ACH0F8P7); SEC): binds
B9 (PIN1 167-460)  binding (ROPGAP3; pull-down; 4 °C): binds
LQLQKGSDTEAQCE (INTS3 584-597; pS590/pT592)  binding (NBN 1-334 T158A (Homo sapiens, UniProt O60934); ITC; peptide): binds
DNIKHVPGGGSVQIVYKPV (MAPT 295-313 (Homo sapiens, UniProt P10636-8))  binding (MAPT 255-441 P301L (Homo sapiens, UniProt P10636-8); ThT fluorescence, TEM; peptide): binds
B10 (PIN3 167-286)  binding (ROPGAP3; pull-down; in vitro): binds
NNDNPLFKSA (ITGB2 residues 748-757 (Homo sapiens))  binding (TLN1 head domain 1-430 K306Q/del139-168, fused to integrin β2 (UniProt P26039); crystal structure; peptide): binds
B11 (PRP40 1-75)  binding (MSL5 (Saccharomyces cerevisiae, UniProt Q12186); pull-down): binds
insulin human  mRNA fold change (item: GFPT1; mouse, EcoHIV-infected, brain; ip, dose not given, added: insulin; relative to: PBS-treated): 1.08
B12 (CENPW K29A/K30A/R34A/E36A/T60E)  binding (CENPT (Homo sapiens, UniProt Q96BT3); pull-down): binds
heparin sodium  subjects with moderate AEs (healthy Chinese adult volunteers; continuous intravenous infusion, 8 IU/kg/h, 5 days): 50%
B13 (GST-KRP3)  binding (MPK3 (Oryza sativa, UniProt Q10N20); pull-down): binds
Polymyxin B  survival (mouse; intraperitoneal, 30 mg/kg single dose, day 5): 0%
B14 (atpC 1-133)  binding (atpG 1-289 (Acinetobacter baumannii, UniProt A3M143); cryo-EM): binds
brain natriuretic peptide  limit of detection (hly (Staphylococcus aureus, UniProt P09616); nanopore sensing; asymmetric electrolyte, ionic strengths): 0.77 pM
B15 (NuoB)  binding (nuoD (Mycolicibacterium smegmatis, UniProt A0QU33); cryo-EM): binds
MSI2 (Arabidopsis thaliana, UniProt O22468)  binding (Histone H3.1 (Homo sapiens, UniProt P68431); pull-down): binds
B16 (cfap-20)  binding (jbts-26 (Caenorhabditis elegans, UniProt O44770); pull-down): binds

For quick reference, copied from above:
Polymyxin B  survival (mouse; intraperitoneal, 30 mg/kg single dose, day 5): 0%
HBV core protein C-terminal NLS peptide (hepatitis B virus) (sequence not shown)  binding (Kpna2 fragment (Mus musculus); crystal structure): binds
